Published values gathered from unrelated publications.
A part holds a random share of what one study measured.
UniProt Q13164, sequence (whole entry, looked up): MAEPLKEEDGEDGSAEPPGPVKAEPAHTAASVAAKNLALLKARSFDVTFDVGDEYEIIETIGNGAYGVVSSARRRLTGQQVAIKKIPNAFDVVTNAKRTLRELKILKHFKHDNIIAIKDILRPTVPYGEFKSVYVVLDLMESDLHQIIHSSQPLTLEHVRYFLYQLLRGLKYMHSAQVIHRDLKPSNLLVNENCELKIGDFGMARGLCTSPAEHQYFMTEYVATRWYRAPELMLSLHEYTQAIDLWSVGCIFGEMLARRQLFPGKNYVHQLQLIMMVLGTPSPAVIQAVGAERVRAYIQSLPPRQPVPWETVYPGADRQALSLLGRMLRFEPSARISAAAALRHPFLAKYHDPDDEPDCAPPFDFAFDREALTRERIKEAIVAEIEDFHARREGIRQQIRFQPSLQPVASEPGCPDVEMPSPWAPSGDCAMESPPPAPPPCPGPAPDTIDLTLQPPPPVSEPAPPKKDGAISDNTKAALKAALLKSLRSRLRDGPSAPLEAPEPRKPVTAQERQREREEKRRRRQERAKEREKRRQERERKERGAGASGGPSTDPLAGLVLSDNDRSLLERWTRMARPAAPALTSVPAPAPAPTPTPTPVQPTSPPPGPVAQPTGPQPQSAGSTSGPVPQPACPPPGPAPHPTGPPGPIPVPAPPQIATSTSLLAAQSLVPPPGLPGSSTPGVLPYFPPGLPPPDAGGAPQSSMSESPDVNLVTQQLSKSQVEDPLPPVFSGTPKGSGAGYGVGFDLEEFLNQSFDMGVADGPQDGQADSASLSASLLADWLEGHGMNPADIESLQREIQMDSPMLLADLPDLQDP
UniProt Q9NWZ3, sequence (whole entry, looked up): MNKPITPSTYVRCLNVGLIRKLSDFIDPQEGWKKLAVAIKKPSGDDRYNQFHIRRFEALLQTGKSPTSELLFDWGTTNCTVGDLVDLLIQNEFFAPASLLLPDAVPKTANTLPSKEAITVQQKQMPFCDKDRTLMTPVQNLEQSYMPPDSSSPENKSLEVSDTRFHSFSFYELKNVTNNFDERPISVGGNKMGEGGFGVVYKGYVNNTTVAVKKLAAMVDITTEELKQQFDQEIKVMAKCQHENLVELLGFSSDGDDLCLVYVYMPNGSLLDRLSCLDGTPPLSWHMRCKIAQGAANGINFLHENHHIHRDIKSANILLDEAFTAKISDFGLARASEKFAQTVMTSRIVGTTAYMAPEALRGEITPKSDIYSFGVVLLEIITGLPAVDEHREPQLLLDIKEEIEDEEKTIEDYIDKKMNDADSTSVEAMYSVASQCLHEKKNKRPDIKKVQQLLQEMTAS
UniProt Q9UKI8, sequence (whole entry, looked up): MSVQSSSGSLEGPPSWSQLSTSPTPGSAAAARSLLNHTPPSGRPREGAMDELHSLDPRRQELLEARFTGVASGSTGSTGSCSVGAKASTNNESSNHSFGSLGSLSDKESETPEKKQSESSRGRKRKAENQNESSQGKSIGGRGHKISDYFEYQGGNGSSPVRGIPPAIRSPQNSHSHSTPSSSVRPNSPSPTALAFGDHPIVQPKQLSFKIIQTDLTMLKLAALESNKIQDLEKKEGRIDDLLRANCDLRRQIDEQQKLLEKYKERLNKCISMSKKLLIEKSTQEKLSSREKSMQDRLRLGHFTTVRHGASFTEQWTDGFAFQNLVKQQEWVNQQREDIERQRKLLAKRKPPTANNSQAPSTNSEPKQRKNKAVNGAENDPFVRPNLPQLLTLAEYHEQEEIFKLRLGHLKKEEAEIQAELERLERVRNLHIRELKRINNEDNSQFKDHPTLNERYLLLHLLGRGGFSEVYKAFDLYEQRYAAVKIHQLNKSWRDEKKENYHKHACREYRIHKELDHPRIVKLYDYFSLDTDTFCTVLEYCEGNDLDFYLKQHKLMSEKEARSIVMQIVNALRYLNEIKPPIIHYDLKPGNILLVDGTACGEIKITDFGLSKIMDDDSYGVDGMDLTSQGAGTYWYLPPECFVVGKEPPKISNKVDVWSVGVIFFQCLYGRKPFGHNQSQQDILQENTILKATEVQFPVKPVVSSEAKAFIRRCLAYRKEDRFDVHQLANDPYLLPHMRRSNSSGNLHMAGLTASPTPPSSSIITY
UniProt P42336, sequence (whole entry, unmodified, looked up): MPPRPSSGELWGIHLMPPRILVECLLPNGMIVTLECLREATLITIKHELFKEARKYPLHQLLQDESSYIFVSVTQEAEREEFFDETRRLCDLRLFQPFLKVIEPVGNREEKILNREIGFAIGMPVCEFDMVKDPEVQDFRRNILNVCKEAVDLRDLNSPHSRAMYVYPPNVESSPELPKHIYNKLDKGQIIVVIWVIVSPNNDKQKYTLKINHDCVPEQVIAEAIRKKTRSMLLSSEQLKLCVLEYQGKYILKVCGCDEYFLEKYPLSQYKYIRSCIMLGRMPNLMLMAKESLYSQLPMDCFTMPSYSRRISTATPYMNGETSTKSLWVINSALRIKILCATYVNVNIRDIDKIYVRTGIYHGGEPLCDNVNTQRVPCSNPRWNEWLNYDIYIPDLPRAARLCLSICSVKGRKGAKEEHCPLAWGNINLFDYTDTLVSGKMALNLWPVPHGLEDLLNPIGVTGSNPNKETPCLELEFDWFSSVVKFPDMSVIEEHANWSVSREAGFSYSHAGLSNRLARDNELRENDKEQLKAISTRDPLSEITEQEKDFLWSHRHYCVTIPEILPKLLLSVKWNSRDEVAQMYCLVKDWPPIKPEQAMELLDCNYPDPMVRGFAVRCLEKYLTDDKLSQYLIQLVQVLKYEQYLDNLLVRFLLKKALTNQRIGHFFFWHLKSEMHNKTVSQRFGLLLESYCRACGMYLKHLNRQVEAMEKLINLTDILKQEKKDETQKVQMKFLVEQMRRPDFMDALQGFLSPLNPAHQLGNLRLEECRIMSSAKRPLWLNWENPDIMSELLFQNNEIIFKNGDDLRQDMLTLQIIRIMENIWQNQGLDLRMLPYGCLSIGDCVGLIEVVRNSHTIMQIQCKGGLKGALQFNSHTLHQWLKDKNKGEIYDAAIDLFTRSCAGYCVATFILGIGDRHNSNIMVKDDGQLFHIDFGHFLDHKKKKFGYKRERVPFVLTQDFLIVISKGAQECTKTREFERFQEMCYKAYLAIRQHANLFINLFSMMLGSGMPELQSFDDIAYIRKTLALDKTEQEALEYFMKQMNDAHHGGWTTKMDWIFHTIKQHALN
UniProt O95747, sequence (whole entry, looked up): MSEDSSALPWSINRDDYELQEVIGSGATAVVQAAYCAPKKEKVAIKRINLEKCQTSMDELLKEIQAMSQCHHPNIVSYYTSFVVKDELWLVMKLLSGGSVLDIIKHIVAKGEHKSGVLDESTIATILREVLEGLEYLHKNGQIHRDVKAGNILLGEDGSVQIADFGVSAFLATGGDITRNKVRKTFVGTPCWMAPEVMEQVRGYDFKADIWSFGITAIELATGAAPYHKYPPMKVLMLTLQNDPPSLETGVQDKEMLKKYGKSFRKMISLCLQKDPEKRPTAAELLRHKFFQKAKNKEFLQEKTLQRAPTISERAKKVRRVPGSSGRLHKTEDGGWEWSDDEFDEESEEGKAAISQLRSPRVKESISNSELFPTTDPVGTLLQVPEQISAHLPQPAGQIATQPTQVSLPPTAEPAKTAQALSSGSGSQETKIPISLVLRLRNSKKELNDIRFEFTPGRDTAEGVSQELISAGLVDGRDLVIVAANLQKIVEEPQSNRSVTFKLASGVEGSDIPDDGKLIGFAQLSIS
UniProt P45984, sequence (whole entry, looked up): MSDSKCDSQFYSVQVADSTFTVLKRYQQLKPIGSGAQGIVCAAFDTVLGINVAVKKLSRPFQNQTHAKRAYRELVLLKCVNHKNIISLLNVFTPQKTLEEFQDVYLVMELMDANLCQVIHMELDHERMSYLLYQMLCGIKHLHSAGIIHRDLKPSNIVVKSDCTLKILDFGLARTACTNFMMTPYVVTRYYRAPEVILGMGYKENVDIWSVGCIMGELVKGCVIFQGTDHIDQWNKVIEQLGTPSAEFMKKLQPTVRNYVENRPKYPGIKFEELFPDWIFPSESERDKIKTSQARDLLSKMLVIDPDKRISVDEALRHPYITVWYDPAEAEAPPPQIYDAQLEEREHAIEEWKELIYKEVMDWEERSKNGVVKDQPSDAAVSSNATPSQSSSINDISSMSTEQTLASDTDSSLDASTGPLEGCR

Sample 1 — cell line: HaCaT; tested at: 100 µM; time: 36 h
Structure (SMILES) | viability [%]
NS(=O)(=O)Cc1noc2ccccc12 | 92.6
CC(=O)O[C@H]1CC[C@@]2(C)C(=CC[C@@H]3[C@@H]2CC[C@]2(C)C(c4cccnc4)=CC[C@@H]32)C1 | 7.5
N=C1CCCN1Cc1[nH]c(=O)[nH]c(=O)c1Cl | 80.6
O=C1CC2(CCCC2)CC(=O)N1CCCCN1CCN(c2ncccn2)CC1 | 91.6
CO[C@H]1C[C@H](O[C@H]2[C@H](C)O[C@@H](O[C@@H]3/C(C)=C/C[C@@H]4C[C@@H](C[C@]5(C=C[C@H](C)[C@@H](C6CCCCC6)O5)O4)OC(=O)[C@@H]4C=C(C)[C@@H](O)[C@H]5OC/C(=C\C=C\[C@@H]3C)[C@]54O)C[C@@H]2OC)O[C@@H](C)[C@@H]1O | 11.8
OC[C@@H](O)[C@@H](O[C@@H]1O[C@H](CO)[C@H](O)[C@H](O)[C@H]1O)[C@H](O)[C@@H](O)CO | 73.2
CCCCC(=O)O[C@]1(C(=O)CO)[C@@H](C)C[C@H]2[C@@H]3CCC4=CC(=O)C=C[C@]4(C)[C@@]3(F)[C@@H](O)C[C@@]21C | 46.2
C=C1c2cccc(O)c2C(=O)C2=C(O)[C@]3(O)C(=O)C(C(N)=O)=C(O)[C@@H](N(C)C)[C@@H]3[C@@H](O)[C@H]12 | 95

Sample 2 — read-out: enzyme activity; action: inhibitor; tested at: 0.5 µM; baseline: control
Target: Fibroblast growth factor receptor 2 (FGFR2, Homo sapiens, UniProt P21802)
UniProt P21802, sequence (whole entry, looked up): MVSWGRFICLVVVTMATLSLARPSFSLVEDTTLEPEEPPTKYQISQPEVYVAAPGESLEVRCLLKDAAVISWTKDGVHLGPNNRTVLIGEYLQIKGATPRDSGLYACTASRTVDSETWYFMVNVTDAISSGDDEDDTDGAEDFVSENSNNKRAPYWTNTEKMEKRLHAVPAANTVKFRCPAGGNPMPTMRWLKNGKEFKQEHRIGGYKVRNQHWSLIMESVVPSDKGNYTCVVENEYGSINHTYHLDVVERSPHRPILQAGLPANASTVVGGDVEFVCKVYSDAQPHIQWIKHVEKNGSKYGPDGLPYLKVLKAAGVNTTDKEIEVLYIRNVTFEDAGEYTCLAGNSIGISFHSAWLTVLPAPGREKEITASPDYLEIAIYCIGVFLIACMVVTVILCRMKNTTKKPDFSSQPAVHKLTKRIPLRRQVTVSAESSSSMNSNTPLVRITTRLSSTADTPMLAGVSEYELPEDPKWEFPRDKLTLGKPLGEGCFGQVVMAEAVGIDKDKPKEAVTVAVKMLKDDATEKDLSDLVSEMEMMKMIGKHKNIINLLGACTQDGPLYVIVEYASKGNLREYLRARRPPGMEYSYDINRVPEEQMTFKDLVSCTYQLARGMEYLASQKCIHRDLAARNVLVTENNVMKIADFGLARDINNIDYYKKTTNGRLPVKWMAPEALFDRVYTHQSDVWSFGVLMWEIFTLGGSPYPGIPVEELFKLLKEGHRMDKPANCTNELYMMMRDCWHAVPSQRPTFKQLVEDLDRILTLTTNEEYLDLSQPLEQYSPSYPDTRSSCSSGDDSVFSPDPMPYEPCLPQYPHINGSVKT
Structure (SMILES) | remaining activity
O=C(Nc1cccc(Nc2cc(Nc3cccc(C(F)(F)F)c3)ncn2)c1)C1CC1 | 105%
O=c1c2ccccc2[nH]c(=S)n1CCN1CCC(=C(c2ccc(F)cc2)c2ccc(F)cc2)CC1 | 101%
Nc1ncnc2n[nH]c(Nc3ccc(F)cc3)c12 | 97.2%
COc1cc2ncnc(Nc3ccc(F)c(Cl)c3)c2cc1OCCCN1CCOCC1 | 98.7%
COc1ccc(OC)c2c(=S)c3ccccc3[nH]c12 | 95.8%
Cc1cccc(-c2[nH]c(C(C)(C)C)nc2-c2ccc3c(c2)OCO3)n1 | 105%
OCC(O)CCON=C1C(c2c(O)[nH]c3ccccc23)=Nc2ccccc21 (stereo not drawn) | 76%
NCCNc1ncc(C(N)=O)c(Nc2cccc(C(F)(F)F)c2)n1 | 110%
CNC(=O)c1cc(Oc2ccc(NC(=O)Nc3ccc(Cl)c(C(F)(F)F)c3)cc2)ccn1 | 72.7%
O=C(O)c1ccc2c3c1cccc3c(=O)n1c3ccccc3nc21 | 100%
O=S(=O)(c1cccc2cnccc12)N1CCCNCC1 | 97.6%
O=C1NC(=O)C(c2cn(CCCO)c3ncccc23)=C1c1cnccn1 | 103%
COc1cc2nccc(Oc3ccc(NC(=S)NC(=O)c4ccccc4C)cc3)c2cc1OC | 89%
Nc1[nH]nc2nc3ccccc3nc12 | 98.1%
CN(C)c1ccc(C=C2C(=O)Nc3ccccc32)cc1 | 98.2%

Sample 3 — host: mouse; matrix: microsomes or S9; tested at: 2 µM; time: 0.5 h
SMILES | remaining compound [%]
COc1c(C)cnc(CN2CCC(NC(=O)OC(C)(C)C)CC2)c1C | 17.2
CCOC1CC(OC(=O)c2csc(-c3ccco3)n2)C12CCC2 (stereo not drawn) | 0.00591
COc1cc(/C=N/n2cnnc2)cc(Br)c1OCCOc1ccc(C(C)(C)C)cc1 | > 99
CC(C)n1[nH]c(=O)c2c(-c3ccc[nH]c3=O)c3c(nc21)[nH]c(=O)n3C | 89.5
CC(C)(C)c1ccc(O)c(NC(=O)c2cc(Br)c[nH]2)c1 | 9.2
CC(C)(C)OC(=O)N1CCC2(CC1)NN=C1C=C(N3CCN(c4ccccc4F)CC3)N=CN12 | 78.2
O=S1(=O)N=C(Nc2nccs2)c2ccccc21 | 75.2
COC(=O)[C@@H](OC(C)(C)C)c1c(C)nc2c(c1Cl)CCN(Cc1ccc(OC)cc1)C2=O | 0.0764

Sample 4 — read-out: cell-free assay; method: competition with immobilised ligand; tested at: 1 µM
SMILES: CN(C)c1ncnc(-c2ccc3nc(Nc4cc(CN5CCN(C(=O)CC(F)(F)F)CC5)ccn4)[nH]c3c2)c1Cl
target | remaining binding [%]
Serine/threonine-protein kinase tousled-like 1 (TLK1, Homo sapiens, UniProt Q9UKI8) | 89
Mitogen-activated protein kinase kinase kinase 2 (MAP3K2, Homo sapiens, UniProt Q9Y2U5) | 78
Mitogen-activated protein kinase 9 (MAPK9, Homo sapiens, UniProt P45984) | 47
Serine/threonine-protein kinase OSR1 (OXSR1, Homo sapiens, UniProt O95747) | 94
Mitogen-activated protein kinase 12 (MAPK12, Homo sapiens, UniProt P53778) | 68
Mitogen-activated protein kinase 7 (MAPK7, Homo sapiens, UniProt Q13164) | 91
Interleukin-1 receptor-associated kinase 4 (IRAK4, Homo sapiens, UniProt Q9NWZ3) | 39
Phosphatidylinositol 4,5-bisphosphate 3-kinase catalytic subunit alpha isoform (PIK3CA, Homo sapiens, UniProt P42336, C420R) | 88
